Measurements collected from several papers.
Every numbered part comes from another study and shows a few of its results, in no order.
Chain of UniProt Q9UBE8 (whole entry, looked up): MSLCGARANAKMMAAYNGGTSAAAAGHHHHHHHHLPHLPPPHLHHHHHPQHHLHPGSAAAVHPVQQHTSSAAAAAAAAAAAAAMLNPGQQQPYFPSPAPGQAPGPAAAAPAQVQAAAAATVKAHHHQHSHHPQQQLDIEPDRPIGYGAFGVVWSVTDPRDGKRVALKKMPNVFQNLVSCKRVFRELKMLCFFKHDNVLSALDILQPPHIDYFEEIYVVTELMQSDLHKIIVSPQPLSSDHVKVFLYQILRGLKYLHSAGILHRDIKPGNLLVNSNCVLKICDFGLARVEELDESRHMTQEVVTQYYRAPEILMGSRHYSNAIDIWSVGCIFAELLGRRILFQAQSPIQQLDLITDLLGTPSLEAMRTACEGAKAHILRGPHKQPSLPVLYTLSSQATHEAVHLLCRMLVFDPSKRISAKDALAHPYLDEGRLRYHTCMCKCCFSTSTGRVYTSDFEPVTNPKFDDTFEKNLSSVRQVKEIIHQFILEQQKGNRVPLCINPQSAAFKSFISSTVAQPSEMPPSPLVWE
Chain of UniProt P49759 (whole entry, looked up): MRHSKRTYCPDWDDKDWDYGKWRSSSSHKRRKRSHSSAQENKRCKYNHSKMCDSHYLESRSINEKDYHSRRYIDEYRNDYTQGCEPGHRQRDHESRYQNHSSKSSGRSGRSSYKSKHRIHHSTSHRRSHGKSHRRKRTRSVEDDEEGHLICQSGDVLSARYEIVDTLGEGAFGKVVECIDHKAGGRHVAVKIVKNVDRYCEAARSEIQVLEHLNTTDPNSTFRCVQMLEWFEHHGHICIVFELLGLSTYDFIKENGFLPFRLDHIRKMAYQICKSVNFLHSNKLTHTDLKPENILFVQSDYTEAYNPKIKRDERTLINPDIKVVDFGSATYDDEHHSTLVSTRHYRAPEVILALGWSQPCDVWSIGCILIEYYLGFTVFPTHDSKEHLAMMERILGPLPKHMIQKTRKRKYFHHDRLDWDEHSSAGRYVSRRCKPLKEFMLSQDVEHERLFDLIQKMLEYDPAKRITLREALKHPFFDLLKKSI
Chain of UniProt Q00532 (whole entry, looked up): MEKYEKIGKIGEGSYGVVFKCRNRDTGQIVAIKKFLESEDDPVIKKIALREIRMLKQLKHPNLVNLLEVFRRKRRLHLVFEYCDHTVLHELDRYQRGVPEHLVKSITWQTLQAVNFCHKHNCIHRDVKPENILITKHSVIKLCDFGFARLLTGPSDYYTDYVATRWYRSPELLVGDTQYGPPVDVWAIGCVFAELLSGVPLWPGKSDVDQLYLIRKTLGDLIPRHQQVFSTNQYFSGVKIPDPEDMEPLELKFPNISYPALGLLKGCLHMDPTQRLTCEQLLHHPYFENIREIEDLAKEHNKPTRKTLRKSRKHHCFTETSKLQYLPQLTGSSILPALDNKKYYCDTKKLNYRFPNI
Chain of UniProt Q13043 (whole entry, looked up): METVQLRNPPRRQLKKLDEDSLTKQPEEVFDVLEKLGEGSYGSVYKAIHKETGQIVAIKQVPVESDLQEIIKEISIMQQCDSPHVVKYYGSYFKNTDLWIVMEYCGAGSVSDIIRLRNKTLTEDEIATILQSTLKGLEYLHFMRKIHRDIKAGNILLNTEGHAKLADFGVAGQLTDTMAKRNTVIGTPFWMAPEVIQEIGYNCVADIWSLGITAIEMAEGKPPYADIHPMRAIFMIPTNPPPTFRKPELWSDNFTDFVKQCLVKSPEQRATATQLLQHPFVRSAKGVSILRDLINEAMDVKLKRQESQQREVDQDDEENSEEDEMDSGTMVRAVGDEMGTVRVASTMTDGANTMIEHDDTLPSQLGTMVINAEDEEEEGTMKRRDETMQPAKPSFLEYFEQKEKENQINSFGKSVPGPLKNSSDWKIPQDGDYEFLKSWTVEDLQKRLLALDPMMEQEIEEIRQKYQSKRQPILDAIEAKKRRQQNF
Chain of UniProt P51813 (whole entry, looked up): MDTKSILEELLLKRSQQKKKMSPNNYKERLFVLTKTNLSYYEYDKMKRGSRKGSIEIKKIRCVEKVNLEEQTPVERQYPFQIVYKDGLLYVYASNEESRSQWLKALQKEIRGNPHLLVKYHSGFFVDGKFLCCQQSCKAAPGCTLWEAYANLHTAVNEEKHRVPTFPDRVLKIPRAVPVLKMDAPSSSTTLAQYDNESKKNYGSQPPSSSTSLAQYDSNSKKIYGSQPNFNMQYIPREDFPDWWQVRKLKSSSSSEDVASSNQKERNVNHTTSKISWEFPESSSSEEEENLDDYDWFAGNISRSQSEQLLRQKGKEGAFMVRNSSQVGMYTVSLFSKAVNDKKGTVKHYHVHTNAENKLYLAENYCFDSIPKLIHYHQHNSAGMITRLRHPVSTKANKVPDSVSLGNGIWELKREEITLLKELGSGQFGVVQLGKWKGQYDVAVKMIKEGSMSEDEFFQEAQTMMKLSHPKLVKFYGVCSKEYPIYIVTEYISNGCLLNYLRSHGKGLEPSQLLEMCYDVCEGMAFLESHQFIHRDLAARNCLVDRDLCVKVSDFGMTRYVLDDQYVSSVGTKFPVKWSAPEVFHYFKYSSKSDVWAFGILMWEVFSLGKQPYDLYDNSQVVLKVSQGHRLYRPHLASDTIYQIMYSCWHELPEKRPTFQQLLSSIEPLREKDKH
Chain of UniProt Q13470 (whole entry, looked up): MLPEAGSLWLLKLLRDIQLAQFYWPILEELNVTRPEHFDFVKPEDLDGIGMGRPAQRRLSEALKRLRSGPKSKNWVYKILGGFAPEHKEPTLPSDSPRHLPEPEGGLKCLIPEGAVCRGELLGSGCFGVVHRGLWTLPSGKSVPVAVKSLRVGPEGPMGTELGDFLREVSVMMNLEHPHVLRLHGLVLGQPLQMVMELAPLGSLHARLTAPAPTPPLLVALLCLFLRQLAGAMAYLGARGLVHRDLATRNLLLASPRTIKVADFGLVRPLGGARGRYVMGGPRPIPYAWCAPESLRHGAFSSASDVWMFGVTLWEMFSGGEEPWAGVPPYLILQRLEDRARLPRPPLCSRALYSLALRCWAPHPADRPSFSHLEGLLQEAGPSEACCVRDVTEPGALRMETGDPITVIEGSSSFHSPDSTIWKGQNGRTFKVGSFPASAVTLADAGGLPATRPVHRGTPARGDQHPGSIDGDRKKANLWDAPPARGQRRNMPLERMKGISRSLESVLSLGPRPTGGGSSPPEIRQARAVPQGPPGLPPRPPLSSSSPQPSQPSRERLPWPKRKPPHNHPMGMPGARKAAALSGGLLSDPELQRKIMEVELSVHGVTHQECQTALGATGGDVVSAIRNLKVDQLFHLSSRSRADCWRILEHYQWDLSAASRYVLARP
Chain of UniProt P42336 (whole entry, unmodified, looked up): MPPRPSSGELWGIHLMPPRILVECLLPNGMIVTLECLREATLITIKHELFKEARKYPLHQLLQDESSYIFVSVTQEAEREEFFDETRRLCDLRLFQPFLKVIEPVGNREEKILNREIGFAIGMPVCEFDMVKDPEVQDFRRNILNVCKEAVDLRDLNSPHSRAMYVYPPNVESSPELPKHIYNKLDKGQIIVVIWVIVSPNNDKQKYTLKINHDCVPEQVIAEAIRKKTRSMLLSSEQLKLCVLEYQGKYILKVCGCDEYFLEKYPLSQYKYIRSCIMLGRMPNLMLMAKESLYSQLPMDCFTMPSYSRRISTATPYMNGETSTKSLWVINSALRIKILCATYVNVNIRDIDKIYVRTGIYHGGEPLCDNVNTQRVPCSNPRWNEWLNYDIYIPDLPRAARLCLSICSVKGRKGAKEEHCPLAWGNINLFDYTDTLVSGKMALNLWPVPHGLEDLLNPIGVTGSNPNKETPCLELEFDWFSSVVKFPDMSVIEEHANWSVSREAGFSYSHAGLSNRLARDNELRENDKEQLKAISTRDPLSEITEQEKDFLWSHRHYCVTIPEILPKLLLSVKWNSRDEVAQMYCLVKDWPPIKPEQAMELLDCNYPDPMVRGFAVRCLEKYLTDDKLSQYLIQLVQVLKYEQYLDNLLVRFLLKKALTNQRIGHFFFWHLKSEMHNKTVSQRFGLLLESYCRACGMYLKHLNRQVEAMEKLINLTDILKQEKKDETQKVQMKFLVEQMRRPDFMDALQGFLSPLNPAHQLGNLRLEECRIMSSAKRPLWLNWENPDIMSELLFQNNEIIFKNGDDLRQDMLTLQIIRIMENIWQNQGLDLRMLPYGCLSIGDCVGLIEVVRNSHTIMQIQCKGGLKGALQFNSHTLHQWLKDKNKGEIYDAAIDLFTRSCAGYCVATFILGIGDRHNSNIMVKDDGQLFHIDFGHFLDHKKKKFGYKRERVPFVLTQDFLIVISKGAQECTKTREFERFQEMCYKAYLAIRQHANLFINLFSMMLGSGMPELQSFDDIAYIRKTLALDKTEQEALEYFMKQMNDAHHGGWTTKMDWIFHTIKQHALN

Sample 1
Cell line: mouse MPNST tumor cells
Technique: high-content nuclear imaging
Item: cell number
Tested at: 10 µM
Time: 12 h
Setting: mean of 2 replicates
Reference: plate mean
Reading: higher = more cells
Structure (SMILES)	nuclei count
NS(=O)(=O)c1cc2c(cc1Cl)N=CNS2(=O)=O	2.52 z-score
CCC(C)CNCC(=O)N1CCc2sccc2C1COc1cccc(C)c1 (stereo not drawn)	-2.8 z-score
Cc1cc(CN)cc(C)c1-c1ncn(C)c1-c1ccnc2cc(F)ccc12	4.23 z-score
Cc1ccc(Nc2ncc3c(n2)N(C)C(=O)N(c2cc(NC(=O)c4cccc(C(F)(F)F)c4)ccc2C)C3)cn1	-4.14 z-score
N#Cc1cc(F)cc(-c2nc(-c3ccc(F)cn3)no2)c1	1.62 z-score
CN1C(CCl)Nc2cc(Cl)c(S(N)(=O)=O)cc2S1(=O)=O (stereo not drawn)	-0.368 z-score
CCN1CCN(c2ccc(C(C)(C)NC(=O)c3cc4[nH]c5ccccc5c(=O)c4cc3F)cn2)CC1	-4.47 z-score
O=C(c1ccc(Cl)cc1)N(Cc1ccccc1)C1CCCCC1	-0.452 z-score
CC(C)NCC(O)COc1ccc(CCOCC2CC2)cc1 (stereo not drawn)	1.64 z-score

Sample 2
Target: panel of 300 human kinases
Tested at: 0.5 µM
Reading: higher = more selective
SMILES	Gini score
COc1ccc(S(=O)(=O)N(CCO)c2ccccc2CN(C)CC=Cc2ccc(Cl)cc2)cc1	0.69
O=C1C(Cl)=C(N2C(=O)CCC2=O)C(=O)c2ccccc21	0.74
CC[n+]1c(/C=C/N(C)c2ccccc2)n(-c2ccccc2)c2ccc(-c3nc4ccccc4s3)cc21	0.68
Nc1nccc(-c2c(-c3ccc(F)cc3)ncn2C2CCNCC2)n1	0.77
Cc1nc2cc3nc(-c4cccs4)cnc3cc2n1C	0.75
O=C(Nc1cccc(Nc2nccc(Nc3cccc(C(F)(F)F)c3)n2)c1)C1CC1	0.66
O=S(=O)(NCCNC/C=C/c1ccc(Br)cc1)c1cccc2cnccc12	0.65
C[C@@H]1CCN(C(=O)CC#N)C[C@@H]1N(C)c1ncnc2[nH]ccc12	0.73
O=C1c2ccccc2-[n+]2ccc3c([nH]c4ccccc43)c21	0.59

Sample 3
SMILES: C[C@H](NC(=O)c1cnc2n1[C@](C)(Cc1ccc(C#N)cc1)C(=O)N2c1cc(Cl)c(F)c(Cl)c1)C(=O)NC1(c2ccccn2)CC1
Read-out: cell-free assay
Technique: competition with immobilised ligand
Tested at: 1 µM
target	remaining binding
Tyrosine-protein kinase ABL1, non-phosphorylated (ABL1, Homo sapiens, UniProt P00519)	99%
PIK3CA (Homo sapiens, UniProt P42336, H1047Y)	100%
Tyrosine-protein kinase ABL1, phosphorylated (ABL1, Homo sapiens, UniProt P00519, M351T)	100%
CDKL5 (Homo sapiens, UniProt O76039)	100%
RIPK1 (Homo sapiens, UniProt Q13546)	100%
EPHB1 (Homo sapiens, UniProt P54762)	85%
TNIK (Homo sapiens, UniProt Q9UKE5)	100%
BMX (Homo sapiens, UniProt P51813)	77%
CLK1 (Homo sapiens, UniProt P49759)	86%
PIKFYVE (Homo sapiens, UniProt Q9Y2I7)	100%
TNK1 (Homo sapiens, UniProt Q13470)	88%
LATS2 (Homo sapiens, UniProt Q9NRM7)	100%
KIT (Homo sapiens, UniProt P10721, A829P)	100%
STK3 (Homo sapiens, UniProt Q13188)	100%
DCLK3 (Homo sapiens, UniProt Q9C098)	100%
STK4 (Homo sapiens, UniProt Q13043)	100%
NLK (Homo sapiens, UniProt Q9UBE8)	100%
CDKL1 (Homo sapiens, UniProt Q00532)	73%
Tyrosine-protein kinase ABL1, phosphorylated (ABL1, Homo sapiens, UniProt P00519, Q252H)	100%
MAP3K11 (Homo sapiens, UniProt Q16584)	100%

Sample 4
Target: Calcium/calmodulin-dependent protein kinase type II subunit alpha (CAMK2A, Homo sapiens, UniProt Q9UQM7)
Chain of UniProt Q9UQM7 (whole entry, looked up): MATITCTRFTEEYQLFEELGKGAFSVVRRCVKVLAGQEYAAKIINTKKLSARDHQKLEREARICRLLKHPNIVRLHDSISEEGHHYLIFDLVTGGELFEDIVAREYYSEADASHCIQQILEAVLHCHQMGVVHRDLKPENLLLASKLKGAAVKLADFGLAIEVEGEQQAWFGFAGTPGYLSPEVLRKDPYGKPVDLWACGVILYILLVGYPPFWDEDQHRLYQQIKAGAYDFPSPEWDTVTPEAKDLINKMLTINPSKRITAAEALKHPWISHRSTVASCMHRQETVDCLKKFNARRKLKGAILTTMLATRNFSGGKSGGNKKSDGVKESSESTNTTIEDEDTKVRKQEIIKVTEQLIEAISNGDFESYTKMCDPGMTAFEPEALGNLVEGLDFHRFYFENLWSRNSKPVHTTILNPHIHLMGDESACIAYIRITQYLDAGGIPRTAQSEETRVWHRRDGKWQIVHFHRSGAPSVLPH
Read-out: enzyme activity
Mode: inhibitor
Tested at: 10 µM
SMILES	inhibition [%]
COc1ccc(C(=O)N2CCN(c3ccc4c(c3)CCC(=O)N4)CC2)cc1OC	-1
Cc1ccc(CO)o1	13
O=C1c2c(O)cc(O)cc2O[C@H](c2ccc(O)cc2)[C@H]1O	14
CC(C)(C)[C@H](NC(=O)C(F)(F)F)C(=O)N1C[C@H]2[C@@H]([C@H]1C(=O)N[C@H](C#N)C[C@@H]1CCNC1=O)C2(C)C	-1
C[C@@H]1C[C@@H]([C@@H](O)C(C)(C)O)O[C@H]2C[C@@]3(C)C(=C12)C[C@H](O)[C@H]1[C@@]2(C)CCC(=O)C(C)(C)[C@@H]2CC[C@@]13C	22
COCC1=C(C(=O)OC(C)OC(=O)OC(C)C)N2C(=O)[C@@H](NC(=O)/C(=N\OC)c3csc(N)n3)[C@H]2SC1 (stereo partly drawn)	0
COc1ccc2cc1Oc1ccc(cc1)C[C@H]1c3cc(c(OC)cc3CCN1C)Oc1c(OC)c(OC)cc3c1[C@H](C2)N(C)CC3	-14

Excerpt of the above (sample 1):
Structure (SMILES)	nuclei count
Cc1cc(CN)cc(C)c1-c1ncn(C)c1-c1ccnc2cc(F)ccc12	4.23 z-score
Cc1ccc(Nc2ncc3c(n2)N(C)C(=O)N(c2cc(NC(=O)c4cccc(C(F)(F)F)c4)ccc2C)C3)cn1	-4.14 z-score
N#Cc1cc(F)cc(-c2nc(-c3ccc(F)cn3)no2)c1	1.62 z-score
CN1C(CCl)Nc2cc(Cl)c(S(N)(=O)=O)cc2S1(=O)=O (stereo not drawn)	-0.368 z-score
CCN1CCN(c2ccc(C(C)(C)NC(=O)c3cc4[nH]c5ccccc5c(=O)c4cc3F)cn2)CC1	-4.47 z-score
O=C(c1ccc(Cl)cc1)N(Cc1ccccc1)C1CCCCC1	-0.452 z-score
CC(C)NCC(O)COc1ccc(CCOCC2CC2)cc1 (stereo not drawn)	1.64 z-score
